Published values gathered from unrelated publications.
Each numbered part is a random draw from the data of one study; scales do not carry over between parts. Substitutions count along the parent as printed.

Series 1 — method: Sort-seq; item: YFP reporter; medium: E. coli; setting: PhoQ-PhoP variant library; with: 10 µM Mg2+; relative to: high Mg2+ state; reading: higher = stronger signaling
Molecule: PhoQ, residues 284 288 289 292 302 303 TTSMTC
PhoP, residues 12 14 15 18 19 TQCLL (Escherichia coli, UniProt P23836) — fold induction: 14.7.
PhoP, residues 12 14 15 18 19 ICWRQ (Escherichia coli, UniProt P23836) — fold induction: 14.2.
The fold induction was 6.61 (PhoP, residues 12 14 15 18 19 VHTVL (Escherichia coli, UniProt P23836)).

Series 2 — method: DHFR PCA, deep sequencing; medium: yeast; with: (+)-ABA 200 µM; relative to: wild-type fitted maximum; reading: higher = stronger binding
Target: ABI1, truncated, D143A, DHFR fusion (Arabidopsis thaliana)
Setting: methotrexate growth selection, single substitutions
Starting sequence: PYL1, truncated, DHFR fusion (Arabidopsis thaliana); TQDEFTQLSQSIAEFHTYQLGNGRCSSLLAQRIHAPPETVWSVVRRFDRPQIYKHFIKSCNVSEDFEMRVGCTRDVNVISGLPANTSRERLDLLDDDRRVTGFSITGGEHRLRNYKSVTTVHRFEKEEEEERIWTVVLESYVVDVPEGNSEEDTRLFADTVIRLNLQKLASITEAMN
For `L82Y`, “relative binding score” read 34%.
For `L156P`, “relative binding score” read -4.32%.
For `V142C`, “relative binding score” read 95.5%.
For `I162F`, “relative binding score” read -5.37%.
`F47S`: “relative binding score” 4.36%.
Under “relative binding score”, `V121F` is recorded as 7.47%.
Under “relative binding score”, `R113K` is recorded as 110%.
`I172N` — result for “relative binding score”: 40.5%.
For `C25P`, “relative binding score” read 26%.
For `V40A`, “relative binding score” read 51.5%.
`I33R` — result for “relative binding score”: -1.89%.
For `P146T`, “relative binding score” read 60.8%.
For `V121G`, “relative binding score” read -2.68%.
Under “relative binding score”, `D153C` is recorded as 57.6%.
For `D159P`, “relative binding score” read -7.93%.

Series 3 — method: protein binding microarray; form: double-stranded DNA, one strand shown; medium: in vitro; concentration: not given; relative to: not given; reading: higher = stronger binding
Target: Histone acetyltransferase KAT6A, winged helix 1, GST fusion (KAT6A, Homo sapiens, UniProt Q92794, residues 1-85)
Setting: 8-mer, flanks averaged, mean of 2 arrays, mostly near background
Residues (chain): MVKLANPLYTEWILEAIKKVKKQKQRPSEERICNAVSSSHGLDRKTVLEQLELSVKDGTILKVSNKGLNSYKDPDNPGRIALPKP
For `CCATTCCA`, the E-score was -0.0677.
The E-score of `AAGATGGG` is reported as -0.0964.
With `GAGGGTGC` the E-score was -0.0544.
For `AACGCGAC`, the E-score was 0.189.
The E-score of `TACCAATA` is reported as 0.0435.
With `GCCATCCA` the E-score was -0.0381.
`CAGCTGTA` has an E-score of -0.133.
`ACTCGGGC` gave an E-score of 0.142.
The E-score of `ACATATAG` is reported as -0.0414.
For `CAACTGAG`, the E-score was -0.097.
`CGAAGAGC` has an E-score of 0.244.
`CAGCGGGC` has an E-score of 0.237.
For `GAGGTCTA`, the E-score was -0.133.
`CGCCTGAG` gave an E-score of 0.135.
The E-score of `AGGTCAGA` is reported as -0.217.
`GTATACTA` has an E-score of -0.0961.
The E-score of `AGACCCTC` is reported as -0.00949.
`AGGCAATG` gave an E-score of -0.189.
The E-score of `TGATACAA` is reported as -0.0535.
For `ACTTTATG`, the E-score was -0.171.
`CTACTGAC` has an E-score of -0.0395.

Series 4 — target: CCNB2, cyclin fold, Cln2 fusion (human); method: yeast growth competition, sequencing; medium: yeast; setting: strong parent motif; relative to: not given; reading: higher = stronger binding
Starting sequence: BRCA2 docking peptide (human); PSIKRNLLNEFDR; partner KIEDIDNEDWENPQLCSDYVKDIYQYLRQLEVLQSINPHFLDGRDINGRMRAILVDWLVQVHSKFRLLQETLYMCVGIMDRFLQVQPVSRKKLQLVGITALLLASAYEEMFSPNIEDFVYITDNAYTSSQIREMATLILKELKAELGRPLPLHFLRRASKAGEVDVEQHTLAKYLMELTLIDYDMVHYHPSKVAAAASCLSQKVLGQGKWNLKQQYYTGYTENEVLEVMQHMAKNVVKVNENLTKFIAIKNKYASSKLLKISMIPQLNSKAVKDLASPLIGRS
`PSIKRNLLNEFDL [R13L]` — result for “normalised enrichment score”: 3.56.
`PSDKRNLLNEFDR [I3D]` — result for “normalised enrichment score”: -0.241.
`PSIKRNLLNEFDF [R13F]`: “normalised enrichment score” 3.78.
For `ASIKRNLLNEFDR [P1A]`, “normalised enrichment score” read 3.64.
For `PSIKRNLLNEFQR [D12Q]`, “normalised enrichment score” read 3.82.
Under “normalised enrichment score”, `PSIKCNLLNEFDR [R5C]` is recorded as 2.18.
Under “normalised enrichment score”, `PSIKRNQLNEFDR [L7Q]` is recorded as 0.695.
For `PLIKRNLLNEFDR [S2L]`, “normalised enrichment score” read 3.24.
For `QSIKRNLLNEFDR [P1Q]`, “normalised enrichment score” read 3.75.
For `PSIKRNLLNERDR [F11R]`, “normalised enrichment score” read 0.56.
`PSIKRNLLNEGDR [F11G]` — result for “normalised enrichment score”: 0.526.
`PSIKRNLLNEFDP [R13P]`: “normalised enrichment score” 3.19.
For `PSIKRNLLNQFDR [E10Q]`, “normalised enrichment score” read 0.864.
`PSIFRNLLNEFDR [K4F]` — result for “normalised enrichment score”: 1.33.
`PSIKRNLVNEFDR [L8V]` — result for “normalised enrichment score”: 2.36.
`PSIKRNGLNEFDR [L7G]`: “normalised enrichment score” -0.0623.
Under “normalised enrichment score”, `PSIKRNNLNEFDR [L7N]` is recorded as -0.949.
`PCIKRNLLNEFDR [S2C]`: “normalised enrichment score” 3.28.
Under “normalised enrichment score”, `PGIKRNLLNEFDR [S2G]` is recorded as 2.71.
`VSIKRNLLNEFDR [P1V]`: “normalised enrichment score” 3.76.

Series 5 — method: protein-binding microarray; form: double-stranded DNA, one strand shown; medium: in vitro; concentration: 250 nM; setting: 60-bp whole probe; with: salmon DNA 0.4 mg/ml; relative to: random background probes; reading: higher = stronger binding; constant ends, left off below: GCCTAGCAC … GTCTTGATTCGCTTGACGCTGCTG
Target: Interferon regulatory factor 7, full length, phosphomimetic (IRF7, Homo sapiens, UniProt Q92985, residues 1-503, S101K/S471D/S472D/S475D/S476D/S477D/S483D/S484D/S487D)
Target sequence (chain): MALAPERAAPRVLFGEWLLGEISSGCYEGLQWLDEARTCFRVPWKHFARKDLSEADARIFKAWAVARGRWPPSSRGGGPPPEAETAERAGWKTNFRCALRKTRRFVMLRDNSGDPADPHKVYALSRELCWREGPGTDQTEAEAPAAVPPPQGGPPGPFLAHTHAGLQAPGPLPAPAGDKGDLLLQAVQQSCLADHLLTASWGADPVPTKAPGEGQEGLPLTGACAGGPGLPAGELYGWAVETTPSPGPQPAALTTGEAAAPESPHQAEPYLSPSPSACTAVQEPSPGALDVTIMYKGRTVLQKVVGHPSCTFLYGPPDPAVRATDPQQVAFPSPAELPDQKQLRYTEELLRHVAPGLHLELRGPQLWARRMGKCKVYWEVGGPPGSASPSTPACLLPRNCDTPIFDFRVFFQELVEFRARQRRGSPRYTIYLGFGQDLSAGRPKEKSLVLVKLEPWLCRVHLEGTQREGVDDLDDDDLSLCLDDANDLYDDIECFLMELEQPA
`GACGCACTGGGGTTTCGGGACGTGCTA` gave a log fluorescence of 1.23 z-score.
`TTGGGTATCCTTTTCCTTTAGTGCTAG` has a log fluorescence of 1.32 z-score.
`GACGGTATCGGGTTCGGGACGTGCTAG` has a log fluorescence of 1.69 z-score.
For `GACGGTCTCCTTATTCTGACGTGCTAG`, the log fluorescence was -0.00106 z-score.
The log fluorescence of `GACGGATTGGGGTATCGGGACGTGCTA` is reported as -0.461 z-score.
With `GACGAACTGTGACTGGAGACGTGCTAG` the log fluorescence was -0.36 z-score.
`GACGATACCAGTCTCGAGACGTGCTAG` has a log fluorescence of 0.709 z-score.
With `GACTGTATCGGACTGGGGACGTGCTAG` the log fluorescence was -0.142 z-score.
The log fluorescence of `GACGGTATCGACTTCCGGGACGTGCTA` is reported as 1.35 z-score.
For `TTAGGTTTCGGTTTCGGTTGGTGCTAG`, the log fluorescence was 15 z-score.
`TTAGGACTGTGGACTGGGTTAGTGCTA` has a log fluorescence of -0.565 z-score.
The log fluorescence of `TCACACACCATTCTCGGACTGTGCTAG` is reported as 0.268 z-score.
`GACGGACTGGGTCTCGCGACGTGCTAG` has a log fluorescence of -0.581 z-score.
With `GACGATTTCAGTTCCTAGACGTGCTAG` the log fluorescence was 0.847 z-score.
`TTTTTTTCATATATATATGAGTGCTAG` has a log fluorescence of 1.4 z-score.
The log fluorescence of `TTGGGTATCGGTATCGGTTAGTGCTAG` is reported as 1.97 z-score.
`GGTGGTCTGGGACCCTCCCCGTGCTAG` gave a log fluorescence of -0.542 z-score.
`GACGGTTTCGGGTATCGGGAAGTGCTA` has a log fluorescence of 8.06 z-score.
The log fluorescence of `TTAGATTTCAGTCGCGATTAGTGCTAG` is reported as 0.739 z-score.
`GACGGTCACGGTATCGGGACGTGCTAG` gave a log fluorescence of 0.275 z-score.
With `GAGGGTTCCCTTTTCCTGACGTGCTAG` the log fluorescence was 2.3 z-score.
`TCACTTTTTGCTTTCTTACTGTGCTAG` gave a log fluorescence of 1.56 z-score.
The log fluorescence of `TCAGATATCGGGACTGGATTAGTGCTA` is reported as -0.0815 z-score.
`ATCATTCTCACTGCAGCCTTGTGCTAG` has a log fluorescence of 0.509 z-score.
`TTAGGACTGGGTATAGGTTAGTGCTAG` gave a log fluorescence of -0.122 z-score.
